Assay results gathered from unrelated publications.
Compare with care: the assays were run in different laboratories. Numbers after ± are the reported error.
Organism: Klebsiella pneumoniae

SMILES | assay | test system | conditions | MIC
COc1ccc2ccc3c(c2c1)C=[N+]1C2CCCCC2[N+]2=Cc4ccccc4[O][Au-]21[O]3.F[P-](F)(F)(F)(F)F (centres unmarked) | bacterial growth, broth microdilution | carbapenem-resistant clinical isolate | 24 h | > 20 µM
CC(C)C[C@H](NC(=O)[C@H](Cc1ccc(O)cc1)NC(=O)[C@@H]1CCCN1C(=O)[C@H](CCCNC(=N)N)NC(=O)[C@@H]1CCCN1C(=O)[C@H](CCCCN)NC(=O)[C@H](CC(=O)O)NC(=O)[C@@H]1CCCN1C(=O)[C@H](CCCNC(=N)N)NC(=O)C1(N)CCCCC1)C(=O)N1CCC[C@H]1C(=O)N[C@@H](CCCNC(=N)N)C(=O)N1CCC[C@H]1C(=O)N[C@@H](CCCNC(=N)N)C(=O)N1CCC[C@H]1C(=O)N1CCC[C@H]1C(=O)N[C@@H](CCCNC(=N)N)C(=O)N1CCC[C@H]1C(=O)N[C@H](C(=O)N[C@@H](CCCNC(=N)N)C(=O)N[C@@H](CSCC(N)=O)C(=O)NN)C(C)C | bacterial growth | ATCC 13883, 100% Mueller-Hinton broth | 90 min, 37 °C, strain ATCC 13883 | 3.2 ± 0.1 µg/mL
C[C@@](O)(C(F)F)[C@H](NC(=O)c1ccc(C#CC#CC2CC2)cc1)C(=O)NO | broth microdilution | 10031, CAMHB | – | 0.0025 µg/mL
C[C@H]1COc2c(N3CCN(C)CC3)c(F)cc3c(=O)c(C(=O)N[C@@H](CCCNC(=N)N)C(=O)N[C@@H](Cc4ccc(-c5ccccc5)cc4)C(=O)N[C@@H](CCCNC(=N)N)C(=O)N[C@@H](Cc4ccc(-c5ccccc5)cc4)C(=O)N[C@@H](CCCNC(=N)N)C(N)=O)cn1c23 | broth microdilution | ATCC 2814 | 18 h, 37 °C | 20 µM
CC[C@H](C)[C@H](NC(=O)[C@@H](CCCNC(=N)N)NC(=O)[C@H](CCCNC(=N)N)NC(=O)[C@H](CCCN)NC(=O)[C@H](Cc1c[nH]c2ccccc12)NC(=O)[C@H](CCCNC(=N)N)NC(=O)[C@@H]1CCCN1C(=O)[C@H](CCCNC(=N)N)NC(=O)[C@@H]1CCCN1C(=O)[C@H](CC(C)C)NC(=O)[C@H](Cc1ccc(O)cc1)NC(=O)[C@@H]1CCCN1C(=O)[C@@H]1CCCN1C(=O)[C@H](CCCCN)NC(=O)[C@H](CC(=O)O)NC(=O)[C@@H](N)C(C)C)C(=O)N[C@@H](Cc1ccc(O)cc1)C(=O)N[C@@H](CC(N)=O)C(=O)N[C@H](CCCNC(=N)N)C(N)=O | broth microdilution | DSM 681 | 18 h | 4 µg/mL
CC(C)[C@H](NC(=O)[C@H](CCCNC(=N)N)NC(=O)[C@H](CCCNC(=N)N)NC(=O)[C@@H](NC(=O)[C@H](C)NC(=O)[C@H](CC(N)=O)NC(=O)[C@H](CCCNC(=N)N)NC(=O)[C@@H](NC(=O)[C@H](CCCNC(=N)N)NC(=O)[C@H](CCCNC(=N)N)NC(=O)[C@@H](NC(=O)[C@@H](NC(=O)[C@H](CCCNC(=N)N)NC(=O)[C@H](CCCNC(=N)N)NC(=O)[C@H](Cc1c[nH]c2ccccc12)NC(=O)[C@H](Cc1c[nH]c2ccccc12)NC(=O)CN)[C@@H](C)O)C(C)C)C(C)C)C(C)C)C(=O)O | – | clinical strain | 18 h, 37 °C | 128 µg/mL
CN[C@H](CC(C)C)C(=O)N[C@H]1C(=O)N[C@@H](CC(N)=O)C(=O)N[C@H]2C(=O)N[C@H]3C(=O)N[C@H](C(=O)N[C@H](C(=O)O)c4cc(O)cc(O)c4-c4cc3ccc4O)[C@H](O)c3ccc(c(Cl)c3)Oc3cc2cc(c3O[C@@H]2O[C@H](CO)[C@@H](O)[C@H](O)[C@H]2O[C@H]2C[C@](C)(NCc3ccc(OCc4cn(CCOCCOCCOCCC(=O)N[C@H](C(=O)N[C@@H](CCN)C(=O)N[C@H]5CCNC(=O)[C@H]([C@@H](C)O)NC(=O)[C@H](CCN)NC(=O)[C@H](CCN)NC(=O)[C@H](CC(C)C)NC(=O)[C@@H](CC(C)C)NC(=O)[C@H](CCN)NC5=O)[C@@H](C)O)nn4)c(OC)c3)[C@H](O)[C@H](C)O2)Oc2ccc(cc2Cl)[C@H]1O | broth microdilution | ATCC 27736 | 18 to 20 h, 37 °C, 0.002% polysorbate 80 | 32 µg/mL
CC[C@H](C)[C@H](NC(=O)[C@H](C)NC(=O)[C@@H](NC(=O)[C@H](CC(=O)O)NC(=O)[C@H](CCCCN)NC(=O)[C@H](CO)NC(=O)[C@@H](NC(=O)[C@H](CC(N)=O)NC(=O)[C@H](C)NC(=O)[C@@H](NC(=O)[C@H](CCC(=O)O)NC(=O)[C@H](CCCCN)NC(=O)[C@@H](NC(=O)[C@@H](NC(=O)[C@H](Cc1c[nH]cn1)NC(=O)[C@H](CCCCN)NC(=O)[C@@H](NC(=O)[C@H](CCCCN)NC(=O)[C@H](CCCCN)NC(=O)[C@@H](NC(=O)[C@H](CC(C)C)NC(=O)[C@H](CCCCN)NC(=O)[C@H](CC(N)=O)NC(=O)[C@H](Cc1ccccc1)NC(=O)[C@H](CCCNC(=N)N)NC(=O)[C@H](CCCCN)NC(=O)[C@H](CCCNC(=N)N)NC(=O)[C@H](Cc1ccccc1)NC(=O)CN)C(C)C)C(C)C)[C@@H](C)O)[C@@H](C)CC)[C@@H](C)O)C(C)C)C(C)C)C(=O)N[C@H](C(=O)N[C@@H](C)C(=O)NCC(=O)N[C@@H](CO)C(=O)NCC(=O)N[C@H](C(=O)N[C@@H](C)C(=O)N[C@H](C(=O)NCC(=O)N[C@@H](C)C(=O)N[C@@H](C)C(=O)N[C@@H](CCSC)C(N)=O)C(C)C)C(C)C)C(C)C | – | isolate RKI 19/16, CAMHB | – | 8 µg/mL
COc1ccc2ccc3c(c2c1)C=[N+]1C2CCCCC2[N+]2=Cc4c(OC)cccc4[O][Au-]21[O]3.F[P-](F)(F)(F)(F)F (centres unmarked) | bacterial growth, broth microdilution | carbapenem-resistant clinical isolate | 24 h | > 20 µM
CC(C)[C@@H]1NC(=O)[C@@H]2CCCN2C(=O)[C@@H](C)NC(=O)[C@H](CO)NC(=O)[C@H](C)NC(=O)[C@H](C(C)(C)C)NC(=O)[C@H](CCO)NC(=O)[C@H](Cc2c[nH]c3ccccc23)NC(=O)[C@H](CCO)NC(=O)[C@@H](CCN)NC(=O)[C@H](CCC(N)=O)NC(=O)[C@H](CCN)NC(=O)[C@H](Cc2ccc(O)cc2)NC(=O)[C@H]([C@@H](C)O)NC1=O | broth microdilution | NDM-1, CAMHB with polysorbate-80 | 16 h | > 64 µg/mL
COc1ccc2ccc3c(c2c1)C=[N+]1C2CCCCC2[N+]2=Cc4c(C)cccc4[O][Au-]21[O]3.F[P-](F)(F)(F)(F)F (centres unmarked) | bacterial growth, broth microdilution | carbapenem-resistant clinical isolate | 24 h | 10 µM
CCCCCCCCCCCCCC(=O)N[C@H](CCN)C(=O)N[C@H](C(=O)N[C@@H](CCN)C(=O)N[C@@H](CC(C)C)C(=O)N[C@@H](CCN)C(=O)N[C@H](Cc1ccccc1)C(=O)N[C@@H](CC(C)C)C(=O)N[C@@H](CCN)C(=O)N[C@H](Cc1ccc(O)cc1)C(=O)N[C@H](C(=O)N[C@@H](CC(=O)O)C(=O)O)C(C)C)[C@@H](C)O | broth microdilution | BNCC 186113 | – | 4 µg/mL
COc1ccc2ccc3c(c2c1)C=[N+]1C2CCCCC2[N+]2=Cc4c(F)cccc4[O][Au-]21[O]3.F[P-](F)(F)(F)(F)F (centres unmarked) | bacterial growth, broth microdilution | carbapenem-resistant | 24 h | > 20 µM
CC(C)C[C@H](NC(=O)[C@H](Cc1ccc(O)cc1)NC(=O)[C@@H]1CCCN1C(=O)[C@H](CCCNC(=N)N)NC(=O)[C@@H]1CCCN1C(=O)[C@H](CCCCN)NC(=O)[C@H](CC(=O)O)NC(=O)[C@@H]1CCCN1C(=O)[C@H](CCCNC(=N)N)NC(=O)C1(N)CCCCC1)C(=O)N1CCC[C@H]1C(=O)N[C@@H](CCCNC(=N)N)C(=O)N1CCC[C@H]1C(=O)N[C@@H](CCCNC(=N)N)C(=O)N1CCC[C@H]1C(=O)N1CCC[C@H]1C(=O)N[C@@H](CCCNC(=N)N)C(=O)N1CCC[C@H]1C(=O)N[C@H](C(=O)N[C@@H](CCCNC(=N)N)C(=O)N[C@@H](CSc1c(F)c(F)c(SC[C@H](NC(=O)[C@H](CCCNC(=N)N)NC(=O)[C@@H](NC(=O)[C@@H]2CCCN2C(=O)[C@H](CCCNC(=N)N)NC(=O)[C@@H]2CCCN2C(=O)[C@@H]2CCCN2C(=O)[C@H](CCCNC(=N)N)NC(=O)[C@@H]2CCCN2C(=O)[C@H](CCCNC(=N)N)NC(=O)[C@@H]2CCCN2C(=O)[C@H](CC(C)C)NC(=O)[C@H](Cc2ccc(O)cc2)NC(=O)[C@@H]2CCCN2C(=O)[C@H](CCCNC(=N)N)NC(=O)[C@@H]2CCCN2C(=O)[C@H](CCCCN)NC(=O)[C@H](CC(=O)O)NC(=O)[C@@H]2CCCN2C(=O)[C@H](CCCNC(=N)N)NC(=O)C2(N)CCCCC2)C(C)C)C(=O)NN)c(F)c1F)C(=O)NN)C(C)C | bacterial growth | ATCC 13883, 100% Mueller-Hinton broth | 90 min, 37 °C, strain ATCC 13883 | 3.6 ± 0.1 µg/mL

A few entries again:
SMILES | assay | test system | conditions | MIC
C[C@H]1COc2c(N3CCN(C)CC3)c(F)cc3c(=O)c(C(=O)N[C@@H](CCCNC(=N)N)C(=O)N[C@@H](Cc4ccc(-c5ccccc5)cc4)C(=O)N[C@@H](CCCNC(=N)N)C(=O)N[C@@H](Cc4ccc(-c5ccccc5)cc4)C(=O)N[C@@H](CCCNC(=N)N)C(N)=O)cn1c23 | broth microdilution | ATCC 2814 | 18 h, 37 °C | 20 µM
